{"data": "Earlier results as cited in several papers", "note": "Each line is one published result; not all experiments were run side by side. Values joined by “and” are separate records of one study, mostly repeats; a detail may differ.", "chain of UniProt P0AA25 (whole entry, looked up)": "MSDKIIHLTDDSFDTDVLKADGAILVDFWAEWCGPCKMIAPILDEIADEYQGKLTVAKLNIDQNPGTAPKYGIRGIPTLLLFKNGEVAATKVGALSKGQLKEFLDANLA", "chain of UniProt P0AES9 (whole entry, looked up)": "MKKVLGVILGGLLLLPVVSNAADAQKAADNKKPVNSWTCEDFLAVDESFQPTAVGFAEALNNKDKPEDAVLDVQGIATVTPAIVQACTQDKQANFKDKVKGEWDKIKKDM", "chain of UniProt P33033 (whole entry, looked up)": "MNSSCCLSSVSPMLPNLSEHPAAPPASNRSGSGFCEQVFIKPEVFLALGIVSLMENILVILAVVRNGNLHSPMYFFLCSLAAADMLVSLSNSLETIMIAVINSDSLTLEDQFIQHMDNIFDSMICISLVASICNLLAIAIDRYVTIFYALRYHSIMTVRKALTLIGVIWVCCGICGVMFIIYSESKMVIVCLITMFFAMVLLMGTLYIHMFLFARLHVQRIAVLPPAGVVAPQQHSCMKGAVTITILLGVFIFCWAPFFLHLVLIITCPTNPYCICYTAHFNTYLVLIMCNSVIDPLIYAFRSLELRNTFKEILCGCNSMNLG", "chain of UniProt P00698 (whole entry, looked up)": "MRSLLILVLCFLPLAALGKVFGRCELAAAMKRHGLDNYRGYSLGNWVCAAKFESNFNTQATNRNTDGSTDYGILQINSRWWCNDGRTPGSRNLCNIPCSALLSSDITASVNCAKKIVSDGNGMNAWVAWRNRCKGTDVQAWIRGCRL", "chain of UniProt P0ACD4 (whole entry, looked up)": "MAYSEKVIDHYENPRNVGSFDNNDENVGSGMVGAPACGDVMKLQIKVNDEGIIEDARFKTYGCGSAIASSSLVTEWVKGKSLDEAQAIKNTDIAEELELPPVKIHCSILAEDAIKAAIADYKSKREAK"}
{"Substance": "hdeA mature, 89 residues (Escherichia coli, UniProt P0AES9)", "test": "NMR, item: Glu37", "setting": "25 °C, numbering of the source", "endpoint": "pKa", "result": "> 5"}
{"Substance": "LYZ (Gallus gallus, UniProt P00698)", "test": "NMR, item: Asp48", "setting": "NaCl 100 mM, numbering of the source", "endpoint": "pKa", "result": 1.4}
{"Substance": "GWKALEEKLKALEEKLKALEEEHKALEEKG (designed coiled-coil peptide L2W/K22E/L23H; N-acetyl, C-terminal amide, Cu(II) bound)", "test": "UV-vis, item: Glu22", "test system": "peptide", "endpoint": "pKa", "result": 6.33}
{"Substance": "MKVIFLKDVKGKGKKGEIKNVA (rplI NTL9 residues 1-22 (Geobacillus stearothermophilus))", "test": "NMR, item: Glu17", "test system": "peptide", "endpoint": "pKa", "result": 4.05}
{"Substance": "SDNKTYG (OMTKY3 peptide residues 26-32 (Meleagris gallopavo); N-acetyl, C-terminal methylamide)", "test": "NMR, item: Asp3", "test system": "peptide", "setting": "numbering of the source", "endpoint": "pKa", "result": 3.6}
{"Substance": "IscU apo (Escherichia coli, UniProt P0ACD4)", "test": "NMR, item: His10", "setting": "NaCl 150 mM, D-state, apo", "endpoint": "pKa", "result": 6.9}
{"Substance": "hdeA mature protein (Escherichia coli, UniProt P0AES9)", "test": "NMR, item: Asp47", "setting": "298 K, numbering of the source", "endpoint": "pKa", "result": 4.14}
{"Substance": "insulin glulisine", "test": "item: total insulin", "test system": "human", "setting": "subcutaneous upper arm, 0.2 U/kg, dose-adjusted from 0.1 U/kg", "endpoint": "Cmax", "result": "0.821 nM"}
{"Substance": "CVRLHESCLGQQVPCCDPCATCYCRFFNAFCYCR (agouti-related protein (87–120); sequence looked up)", "tested on": "Melanocortin receptor 3 (Mus musculus, UniProt P33033)", "test": "antagonist, cAMP", "test system": "peptide", "endpoint": "Ki", "result": "7.9 nM"}
{"Substance": "trxA (Escherichia coli, UniProt P0AA25)", "test": "NMR, item: Cys35", "setting": "reduced, no protein ligand, numbering of the source", "endpoint": "pKa", "result": "> 11 and 9.4 and 7.05"}
